Assay results pooled from the literature.
Numbered parts are unrelated; each lists some results of a single study. Substitutions count along the parent as printed.

Series 1 — method: DHFR PCA, deep sequencing; matrix: yeast; together with: (+)-ABA 710 µM; relative to: wild-type fitted maximum; direction: higher = stronger binding
Target: ABI1, truncated, D143A, DHFR fusion (Arabidopsis thaliana)
Setting: methotrexate growth selection, single substitutions
Parent: PYL1, truncated, DHFR fusion (Arabidopsis thaliana); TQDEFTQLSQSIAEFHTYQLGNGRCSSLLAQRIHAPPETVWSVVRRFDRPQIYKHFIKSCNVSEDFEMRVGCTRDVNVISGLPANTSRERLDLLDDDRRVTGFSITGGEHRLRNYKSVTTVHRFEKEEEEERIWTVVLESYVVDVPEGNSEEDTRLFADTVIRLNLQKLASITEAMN
`V43P` — result for “relative binding score”: 18%.
Under “relative binding score”, `S117V` is recorded as 11.9%.
`S9C`: “relative binding score” 84.9%.
Under “relative binding score”, `A175S` is recorded as 101%.
`S42C`: “relative binding score” 98.4%.
`F124G` — result for “relative binding score”: 98.9%.
`S117T`: “relative binding score” 56.5%.
Under “relative binding score”, `I52Q` is recorded as 100%.

Series 2 — method: aptamer microarray, sandwich; form: DNA with 2'F-ANA; matrix: in vitro; concentration: 200 nM; together with: Cy3 exosite-II aptamer, 400 nM; direction: higher = stronger binding; sequence: GGTTGGTGTGGTTGG
Target: Prothrombin, mature alpha-thrombin (F2, Homo sapiens, UniProt P00734)
Setting: whole 15-mer aptamer, many near background
`2'F-ANA at 2 3 11 14 15` — result for “mean fluorescence intensity”: 370 a.u.
Under “mean fluorescence intensity”, `2'F-ANA at 1 3 4 5 6 8 10 11` is recorded as 66.4 a.u.
Under “mean fluorescence intensity”, `2'F-ANA at 1 2 3 4 7 11 12 13` is recorded as 203 a.u.
`2'F-ANA at 1 5 12 13 14 15`: “mean fluorescence intensity” 47.3 a.u.
`2'F-ANA at 1 2 5 6 7 9 10 14`: “mean fluorescence intensity” 50 a.u.
`2'F-ANA at 5 7 8 9 10 11 12 13 14`: “mean fluorescence intensity” 49.5 a.u.
For `2'F-ANA at 2 3 4 5 6 7 9`, “mean fluorescence intensity” read 93.8 a.u.
`2'F-ANA at 2 3 4 6 7 9 13`: “mean fluorescence intensity” 319 a.u.
`2'F-ANA at 1 7 9 13 14 15` — result for “mean fluorescence intensity”: 57.7 a.u.
For `2'F-ANA at 1 3 4 6 8 10 11 15`, “mean fluorescence intensity” read 59.7 a.u.

Series 3 — target: CCND2, cyclin fold, Cln2 fusion (human); method: yeast growth competition, sequencing; matrix: yeast; setting: weak parent motif; relative to: not given; direction: higher = stronger binding
Parent: MASTL docking peptide (human); PMIAKNLMCELDE; partner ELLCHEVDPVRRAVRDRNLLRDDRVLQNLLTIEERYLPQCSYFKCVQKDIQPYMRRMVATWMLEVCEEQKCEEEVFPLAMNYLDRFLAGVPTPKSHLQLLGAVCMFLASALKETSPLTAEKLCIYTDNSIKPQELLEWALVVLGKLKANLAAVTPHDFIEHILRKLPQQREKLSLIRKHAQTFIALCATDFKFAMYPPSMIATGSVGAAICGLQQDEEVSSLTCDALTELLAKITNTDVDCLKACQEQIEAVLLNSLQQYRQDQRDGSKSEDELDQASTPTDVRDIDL
For `PMIAKNLMVELDE [C9V]`, “normalised enrichment score” read 0.265.
Under “normalised enrichment score”, `PMIAENLMCELDE [K5E]` is recorded as 0.135.
For `PMPAKNLMCELDE [I3P]`, “normalised enrichment score” read -0.162.
`PMGAKNLMCELDE [I3G]` — result for “normalised enrichment score”: 0.411.
For `PMIRKNLMCELDE [A4R]`, “normalised enrichment score” read 0.178.
Under “normalised enrichment score”, `PMIAKNLNCELDE [M8N]` is recorded as -0.125.
`PMIAKNLMRELDE [C9R]` — result for “normalised enrichment score”: 0.232.
`PMIAKNLMCYLDE [E10Y]`: “normalised enrichment score” 0.332.
`PMYAKNLMCELDE [I3Y]` — result for “normalised enrichment score”: 0.295.

Other studies, line by line
With `PhoQ, residues 284 288 289 292 302 303 SSLVEF` the fold induction was 2.55 (PhoP, residues 12 14 15 18 19 YHFSH (Escherichia coli, UniProt P23836); Sort-seq, measured: YFP reporter; E. coli; PhoQ-PhoP variant library, together with: 10 µM Mg2+; relative to: high Mg2+ state, higher = stronger signaling).

Some of these lines once more (series 2):
Under “mean fluorescence intensity”, `2'F-ANA at 1 3 4 5 6 8 10 11` is recorded as 66.4 a.u.
Under “mean fluorescence intensity”, `2'F-ANA at 1 2 3 4 7 11 12 13` is recorded as 203 a.u.
`2'F-ANA at 1 5 12 13 14 15`: “mean fluorescence intensity” 47.3 a.u.
